Assay results of several laboratories.
Every numbered part comes from another study and shows a few of its results, in no order. Substitutions count along the parent as printed.
Chain of UniProt P05771 (whole entry, looked up): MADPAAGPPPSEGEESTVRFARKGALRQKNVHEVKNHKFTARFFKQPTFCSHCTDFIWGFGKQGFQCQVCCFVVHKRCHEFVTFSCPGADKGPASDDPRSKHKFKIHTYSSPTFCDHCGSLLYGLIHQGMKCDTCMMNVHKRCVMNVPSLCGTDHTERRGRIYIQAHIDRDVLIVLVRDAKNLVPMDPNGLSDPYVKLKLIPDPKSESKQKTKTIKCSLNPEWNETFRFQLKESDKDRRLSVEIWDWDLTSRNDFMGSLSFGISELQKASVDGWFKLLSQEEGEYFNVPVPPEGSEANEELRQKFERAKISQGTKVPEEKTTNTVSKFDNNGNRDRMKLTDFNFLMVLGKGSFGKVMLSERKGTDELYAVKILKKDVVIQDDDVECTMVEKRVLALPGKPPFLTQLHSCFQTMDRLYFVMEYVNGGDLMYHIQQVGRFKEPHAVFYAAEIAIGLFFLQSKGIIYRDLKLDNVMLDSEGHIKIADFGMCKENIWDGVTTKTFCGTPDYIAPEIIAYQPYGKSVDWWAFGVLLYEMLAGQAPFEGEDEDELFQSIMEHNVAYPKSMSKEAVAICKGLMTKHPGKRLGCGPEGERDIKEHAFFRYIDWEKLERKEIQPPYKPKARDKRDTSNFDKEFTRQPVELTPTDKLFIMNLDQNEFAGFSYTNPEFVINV

Block 1 — technique: RNA Bind-n-Seq; molecule type: RNA; matrix: in vitro; concentration: not given; relative to: input RNA pool; direction: higher = stronger binding; endpoint: bound/input enrichment
Target: RING finger protein unkempt homolog, zinc fingers 1-6, GST-SBP tag (UNK, Homo sapiens, UniProt Q9C0B0, residues 30-357)
Chain of UniProt Q9C0B0 (30-357, looked up): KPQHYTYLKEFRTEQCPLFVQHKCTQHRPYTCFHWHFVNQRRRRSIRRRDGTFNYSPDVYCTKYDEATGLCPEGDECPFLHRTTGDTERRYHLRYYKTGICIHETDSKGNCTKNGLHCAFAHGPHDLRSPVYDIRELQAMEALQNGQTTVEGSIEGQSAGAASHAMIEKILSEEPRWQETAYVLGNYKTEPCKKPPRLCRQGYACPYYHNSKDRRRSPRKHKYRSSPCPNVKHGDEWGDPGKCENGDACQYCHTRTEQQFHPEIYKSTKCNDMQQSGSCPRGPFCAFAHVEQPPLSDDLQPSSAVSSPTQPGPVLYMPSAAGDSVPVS
Setting: RNA with constant flanks, human and mouse sites, ends assumed
All sequences stand within: GGGAGUUCUACAGUCCGACGAUC … CAACAGAGGAUUGAGCAUCA
AAUUCACAGAAGCACAAUUUUGCCCUUUGCGAGACAUUGUUGCCUCUAUCUAGUCCUACAAGUAGGGUUUUGCAUACUGUGUUUGCCCCUAGGGUUGUCAGUGCAUCAGAAAUACUUCUA: 0.181 ratio
GAUAUCCAAGCUUGCGUGGACCAUGUGAACCUGGUGGUGCAAGAGGAACAUGAGAGGAUUUUAGCCAUUGGUUUAAUUAAUGAAGCCCUGGAUGAAGGUGAUGCCCAAAAGACUCUGCAG: 0.48 ratio
CUCCCCCUAACUGUGGCCCUACAAAUCCCUAGGCCAGACCUCACAGCAGUGCCCACAGGCAUGCCUUGUUUAGCCCUCCUCAAGGAAUUUUAAAAUUUUUAAUUACUUUUUUUUUUUUUG: 8.85 ratio
CUCAUUCUUUCCUUGGCGUGUCUGAGUGUCCUCUGUCCUCUGGUUAUCCGUGCCUUGGUCCUUAGGGAAGAGAGCUGUGGUAGGGUAUGAAGAUGGUACCAUCAGGAUCUGGGACCUCAA: 0.214 ratio
UCAUUGCCCUCAACAUGAAGACUGCCAUAUUCCAAGUCACAUCAUUUUACCAAUGGAGUUAUAGAAUUAACAGUAUUUUCAAUUACGUUUAUAACACUGCAGAGACCUUAAGUGCUAAAC: 0.363 ratio
ACUCCCCUCCCUCUAACAGCAGGCUGUGUGGGUUUCAAUUCCCAUCCUUCCCACCCCGGCUAGGUGUCGUCCACCCUGUAUCCUGUGUCUGAGUGUGUGUGGGGGGGUUCUGUACUAAUU: 0.239 ratio
GGACGAGAGCCUCUUACUUACUAUGACAUGAAUCUCUCUGCCCAAGACCACCAGACAUUCUUUACUUGUGACUCGGACCAUCUGCGUCCCGCAGAUGCAAUAAUGCAGAAAGCCUGGAGA: 0.314 ratio
UACACAAGGAAAGUUGACUACUUCCCAUUCCUGGAUUUAGGAGAGGAACUCAGAAGGCCCUUAGGAUGAUCUGUUUGUAUGGGAAGAAGUUAGAGACAAUGGAUUUUAUAAUUCCAGAUU: 1.95 ratio

Block 2 — target: CRIPT, C-terminal peptide; technique: DHFR complementation, deep sequencing; matrix: yeast; relative to: wild type; direction: higher = weaker binding; endpoint: binding free energy change
Setting: single substitutions, model-inferred values
Starting sequence: ERBIN, PDZ domain 1 (human); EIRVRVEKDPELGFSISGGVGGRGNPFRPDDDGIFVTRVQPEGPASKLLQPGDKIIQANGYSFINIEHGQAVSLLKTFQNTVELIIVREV; partner TKNYKQTSV
G69E: -0.803 kcal/mol
S17I: 0.972 kcal/mol
Q50K: 0.00353 kcal/mol
I55R: 0.559 kcal/mol
R3Q: -0.0188 kcal/mol
P44R: 0.28 kcal/mol
G22E: -2.49 kcal/mol
R23A: -0.484 kcal/mol

Block 3 — technique: RNAcompete; molecule type: RNA; matrix: in vitro; concentration: 20 nM; setting: 7-mer, probes averaged, single round; relative to: mean of 7-mers; direction: higher = stronger binding; endpoint: 7-mer Z-score
Target: PABPC1L2, full length, GST fusion (mouse, UniProt A0ABA7IW68)
Target sequence (chain): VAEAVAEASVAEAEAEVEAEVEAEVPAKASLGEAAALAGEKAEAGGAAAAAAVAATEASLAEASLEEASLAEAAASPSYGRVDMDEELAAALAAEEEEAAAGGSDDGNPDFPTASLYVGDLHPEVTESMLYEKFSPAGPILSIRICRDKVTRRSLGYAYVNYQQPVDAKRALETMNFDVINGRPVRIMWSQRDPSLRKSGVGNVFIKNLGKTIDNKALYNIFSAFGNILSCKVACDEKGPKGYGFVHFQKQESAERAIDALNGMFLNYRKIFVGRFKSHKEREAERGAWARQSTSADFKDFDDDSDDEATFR
UUAGUGA: -0.219
GCAACAA: 0.369
AAAAGGG: 3.9
GGCGGAA: 0.686
UAGAAAC: 0.968
CGUGGUC: -0.211
CUUAAUG: -0.298
CACAAUG: -0.106

Single results of other studies
COc1ccc(CNC(=O)Nc2ncc([N+](=O)[O-])s2)cc1
remaining activity (Protein kinase C beta type, isoform beta-I (PRKCB, Homo sapiens, UniProt P05771); enzyme activity, inhibitor; 0.5 µM; relative to: control): 103%

A few entries again (block 1):
UCAUUGCCCUCAACAUGAAGACUGCCAUAUUCCAAGUCACAUCAUUUUACCAAUGGAGUUAUAGAAUUAACAGUAUUUUCAAUUACGUUUAUAACACUGCAGAGACCUUAAGUGCUAAAC: 0.363 ratio
ACUCCCCUCCCUCUAACAGCAGGCUGUGUGGGUUUCAAUUCCCAUCCUUCCCACCCCGGCUAGGUGUCGUCCACCCUGUAUCCUGUGUCUGAGUGUGUGUGGGGGGGUUCUGUACUAAUU: 0.239 ratio
GGACGAGAGCCUCUUACUUACUAUGACAUGAAUCUCUCUGCCCAAGACCACCAGACAUUCUUUACUUGUGACUCGGACCAUCUGCGUCCCGCAGAUGCAAUAAUGCAGAAAGCCUGGAGA: 0.314 ratio
